Measured values of several laboratories.
Parts stem from different laboratories: compare values within a part only. Changes are numbered by the printed parent chain.

Set 1 — method: RNA Bind-n-Seq; molecule type: RNA; matrix: in vitro; tested at: 365 nM; baseline: no-protein control; direction: higher = stronger binding; measurement: RBNS enrichment (R)
Target: RNA binding protein fox-1 homolog 2, RRM domain, GST-SBP tag (RBFOX2, Homo sapiens, UniProt O43251-10, residues 100-194)
Notes: natural RNA segment, single round, ends assumed
Construct (chain): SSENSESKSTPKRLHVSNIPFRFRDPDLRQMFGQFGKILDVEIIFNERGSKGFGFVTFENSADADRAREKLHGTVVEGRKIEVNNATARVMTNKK
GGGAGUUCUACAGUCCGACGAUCAUUGACAGUUGCAGAAUUGUGGAGUGUUUUUACAUUGAUCUUUUGCUAAUGCAAUUAGCAUUAUGUUUUGCAUGUAUGACUUAAUAAAUCCUUGAAUCAUACGACUGGUAUGGAAUUCUCGGGUGCCAA: 0.377
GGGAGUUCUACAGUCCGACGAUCCUUGUUUGUUUUUUGGCAUGAAUUGUCAUCUUUGGUGUUUUUUUAACCCCCAGCCCCUCAAAAAAAUAAGGCCUCCAGGUAUCAAGAUCUCAUAUUAGGAUUUUCUGUCCUGGAAUUCUCGGGUGCCAA: 0.484
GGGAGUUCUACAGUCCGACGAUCAAGGGACCCCCUCCCUGCUCCUGGGUCCCUGCGUGUGUGGGUGUGUGUCCGUGUGCAUGGCCUGUUUGUGUGCAAGGGCCCAGGACAGAAGUAUGUGUGCGUGUGUGUGUUGGAAUUCUCGGGUGCCAA: 10.5
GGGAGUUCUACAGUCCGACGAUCUAUGUAGAAUAACAUGAAAAAUUGGAGGUGCUGGUGGUAUGGCUGACCCUGUUUCAGAAGCAGGAUAGUAUAAAAGCAUCAGCCUAAGAAUGGCACUCCCACUAACUAGCUGGAAUUCUCGGGUGCCAA: 0.265
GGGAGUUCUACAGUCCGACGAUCCGGGCAGUAAGUAUUGUAACGCCGGCCUCUUUUUGGGUCAUUUACUAGAUUAGGACUAUUACAUCCAAGGCACUGGGGGAUUCUGGUGGGCUCCAAAUUAGCUUUACUGAUGGAAUUCUCGGGUGCCAA: 0.505
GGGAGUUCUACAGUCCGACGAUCCUGACGUUUCUAUUAAUGAGUUAUCAGAAGUUGCAACAUCUCUCCAGCACUAAUGUGUUUUGUCCACUUCAAACGCUGUUCUAAUUGCCAACCGGCUGCUCUAGGCUCCUUGGAAUUCUCGGGUGCCAA: 0.37
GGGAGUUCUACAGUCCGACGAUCGGUGCCCCAUCAUUGGCCACCCCAGCCAUAGGUGUGUGCUGUUGGUGGGAAAUGGUCUCCUUCCUCAGCGUUGUGUUUGGGUUACUGGUGAGGCCAGCUCACAGAGUGACUGGAAUUCUCGGGUGCCAA: 0.333
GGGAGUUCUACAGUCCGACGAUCUCUCAAUAACUCUAAAAGGGAGGUGCUUGGGAUUAAGGUGACAGUCCACUUGAUCCUUUUCUUUGUUUUAGUGUGAAUUUCAGCAGCUCCAUCUGUCUUCAUGAUUGUACUGGAAUUCUCGGGUGCCAA: 0.661

Set 2 — target: CCNB3, cyclin fold, Cln2 fusion (human); method: yeast growth competition, sequencing; matrix: yeast; notes: strong parent motif; baseline: not given; direction: higher = stronger binding; measurement: normalised enrichment score
Parent: RBL2 docking peptide (human); STTRRRLFVENDS
R4V: 0.316
T3E: -0.0451
F8V: -0.367
E10Y: 0.516
R5W: 0.0145
S13H: 1.04
R4A: 1.06
F8D: 0.0359
L7A: 0.623
S13P: 1.8
T2D: 0.342
S1V: 1.03
R4C: 0.595
R4P: 0.631

Set 3 — target: CREB3, bZIP domain (human); method: DHFR protein complementation; matrix: yeast; baseline: wild-type JUN-FOS pair; direction: higher = stronger binding; measurement: binding fitness
Notes: single substitutions, most at no-binding floor
Parent: JUN, bZIP domain (human); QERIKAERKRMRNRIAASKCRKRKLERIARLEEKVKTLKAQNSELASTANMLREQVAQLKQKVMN; partner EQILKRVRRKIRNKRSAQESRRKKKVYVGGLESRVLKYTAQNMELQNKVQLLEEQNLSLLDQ
E33N: -1.34 natural log
A29P: -1.47 natural log
A57W: -1.42 natural log
I28Q: -1.25 natural log
E54H: -1.46 natural log
E54P: -1.48 natural log
A57K: -1.59 natural log
T48H: -1.46 natural log
R30A: -1.29 natural log
T37Q: -1.36 natural log
S43T: -1.4 natural log
M51A: -1.36 natural log
L38V: -1.44 natural log

Set 4 — method: Sort-seq; measured: YFP reporter; matrix: E. coli; notes: PhoQ-PhoP variant library; added: 10 µM Mg2+; baseline: high Mg2+ state; direction: higher = stronger signaling; measurement: fold induction
Molecule: PhoQ, residues 284 288 289 292 302 303 TYGVAM
PhoP, residues 12 14 15 18 19 SFCSL (Escherichia coli, UniProt P23836): 18.7
PhoP, residues 12 14 15 18 19 AYFRS (Escherichia coli, UniProt P23836): 12
PhoP, residues 12 14 15 18 19 HHYTI (Escherichia coli, UniProt P23836): 26.7

For quick reference, copied from above (set 4):
PhoP, residues 12 14 15 18 19 SFCSL (Escherichia coli, UniProt P23836): 18.7
PhoP, residues 12 14 15 18 19 AYFRS (Escherichia coli, UniProt P23836): 12
PhoP, residues 12 14 15 18 19 HHYTI (Escherichia coli, UniProt P23836): 26.7
